Measurements of several laboratories.
Lines come from different studies, so protocols differ. ± gives the spread as reported.

CCCC[C@H](NC(=O)CNC(=O)CNC(=O)CN1CCN(CC(=O)O)CCN(CC(=O)O)CCN(CC(=O)O)CC1)C(=O)N[C@H]1CC(=O)NCCCC[C@@H](C(N)=O)NC(=O)[C@H](Cc2c[nH]c3ccccc23)NC(=O)[C@H](CCCNC(=N)N)NC(=O)[C@@H](Cc2ccccc2)NC(=O)[C@H](Cc2c[nH]cn2)NC1=O [gallium-67 labelled]  tissue uptake (female C57 mice, B16/F1 melanoma, bone; intravenous, 0.037 MBq, 4 h): 0.87 ± 0.09 %ID/g
CC(C)[C@H](NC(=O)[C@@H]1CCCN1C(=O)[C@H](CCCNC(=N)N)NC(=O)[C@H](CS)NC(=O)[C@H](Cc1c[nH]c2ccccc12)NC(=O)[C@H](CCCNC(=N)N)NC(=O)[C@@H](Cc1ccccc1)NC(=O)[C@H](Cc1c[nH]cn1)NC(=O)[C@H](CCC(=O)O)NC(=O)[C@H](CS)NC(=O)[C@H](CS)NC(=O)COCCOCCNC(=O)[C@@H]1CC(=O)N[C@@H](CCCNC(=N)N)C(=O)NCC(=O)N[C@@H](CC(=O)O)C(=O)N[C@H](Cc2ccc(O)cc2)C(=O)N1)C(N)=O [technetium-99m labelled]  tissue uptake (nude mouse, M21 melanoma xenograft, heart; intravenous, 2 h): 0.2 ± 0.01 %ID/g
O=C(O)C1CN(Cc2ccc(-c3noc(-c4ccc(OCC[18F])c(C(F)(F)F)c4)n3)cc2)C1  tissue uptake (male Sprague-Dawley rat, kidney; intravenous, 30 min): 1.08 %ID/g
CCCC[C@H](NC(=O)CN1CCC(NC(=O)CN2CCN(CC(=O)O)CCN(CC(=O)O)CCN(CC(=O)O)CC2)CC1)C(=O)N[C@H]1CC(=O)NCCCC[C@@H](C(N)=O)NC(=O)[C@H](Cc2c[nH]c3ccccc23)NC(=O)[C@H](CCCNC(=N)N)NC(=O)[C@@H](Cc2ccccc2)NC(=O)[C@H](Cc2c[nH]cn2)NC1=O [gallium-68 labelled]  tissue uptake (C57BL/6J mice male B16-F10 tumour, fat; 1 h post injection, unblocked): 0.2 ± 0.1 %ID/g
CCCC[C@H](NC(=O)CNC(=O)CNC(=O)CN1CCN(CC(=O)O)CCN(CC(=O)O)CC1)C(=O)N[C@H]1CC(=O)NCCCC[C@@H](C(N)=O)NC(=O)[C@H](Cc2c[nH]c3ccccc23)NC(=O)[C@H](CCCNC(=N)N)NC(=O)[C@@H](Cc2ccccc2)NC(=O)[C@H](Cc2c[nH]cn2)NC1=O [gallium-67 labelled]  tissue uptake (female C57 mice, B16/F1 melanoma, skin; intravenous, 0.037 MBq, 0.5 h): 4 ± 0.32 %ID/g
CCCC[C@@H]1NC(=O)[C@@H](NC(=O)[C@H](CCC(=O)O)NC(=O)CNC(=O)CN2CCN(CC(=O)O)CCN(CC(=O)O)CCN(CC(=O)O)CC2)CCCCNC(=O)C[C@@H](C(N)=O)NC(=O)[C@H](C(C)C)NC(=O)[C@@H]2CCCN2C(=O)[C@H](CCCNC(=N)N)NC(=O)CNC(=O)[C@H](Cc2c[nH]c3ccccc23)NC(=O)[C@H](CCCNC(=N)N)NC(=O)[C@@H](Cc2ccccc2)NC(=O)[C@H](Cc2c[nH]cn2)NC(=O)[C@H](CCC(=O)O)NC1=O [gallium-67 labelled]  tissue uptake (C57 mice with B16/F1 melanoma, lung; intravenous, 0.5 h): 1.44 ± 0.47 %ID/g
OCc1cn(Cc2ccc(-c3noc(-c4ccc(OCC[18F])c(C(F)(F)F)c4)n3)cc2)nn1  tissue uptake (Lewis rat, female, bone; intravenous, 0.5 h): 0.45 ± 0.03 %ID/g
C[C@H](CN(C)Cc1ccccc1)NC(=O)c1ccc(-c2noc(C(F)(F)[18F])n2)cc1  tissue uptake (PET imaging; female Sprague-Dawley rats, cerebellum; intravenous, 1 min): 3.01 ± 1.08 SUV

Some of these lines once more:
OCc1cn(Cc2ccc(-c3noc(-c4ccc(OCC[18F])c(C(F)(F)F)c4)n3)cc2)nn1  tissue uptake (Lewis rat, female, bone; intravenous, 0.5 h): 0.45 ± 0.03 %ID/g
